Measurements pooled from the literature.
Numbers after ± are the reported error.
Organism: Trypanosoma cruzi

SMILES	test	system	conditions	EC50 [µM]
N#CSCCOc1ccc(Oc2ccncc2)cc1	parasite growth		intracellular, amastigote	> 10
CCOC(=O)CC1SC(=NN=Cc2ccc(O)c(OC)c2)NC1=O (stereo not shown)	parasite growth		24 h, trypomastigote	35.5
Cn1cncc1[C@@](N)(c1ccc(Cl)cc1)c1ccc2c(c1)c(-c1cccc(Cl)c1)cc(=O)n2C	parasite growth	NIH3T3	intracellular, amastigote	0.004
O=C1C(Cc2ccc(Cl)cc2)=CS(=O)(=O)c2ccccc21	intracellular amastigote growth	U-937, Tulahuen, β-galactosidase transfected	72 h	62.7
O=C(N[C@H](Cc1c[nH]c2ccccc12)C(=O)Nc1ccncc1)c1ccc(N2CCN(S(=O)(=O)c3ccsc3C(=O)O)CC2)cc1F		mouse C2C12 myoblasts, CA-I/72	72 h	> 10
O=C1C=CS(=O)(=O)c2c(Br)cccc21	intracellular amastigote growth	U-937, Tulahuen, β-galactosidase transfected	72 h	354
CCOC(=O)c1csc(NN=C(C)c2ccccc2)n1	parasite growth		24 h, trypomastigote	2.83
CN(C)C(=O)c1ccc(NCc2cncn2Cc2ccc(-c3ccccc3)cc2)cc1-c1ccccc1	parasite growth	mouse Fibroblast	intracellular, amastigote	0.014
O=C1C=CS(=O)(=O)c2cc(-c3cc(C(F)(F)F)cc(C(F)(F)F)c3)ccc21	intracellular amastigote growth	U-937, Tulahuen, β-galactosidase transfected	72 h	152
O=C(Cn1ccnc1[N+](=O)[O-])NCc1ccccc1	parasite growth, imaging	U2OS	72 h, intracellular, amastigote	2.5
N#CSCCOc1ccc(Oc2ccccc2F)cc1	parasite growth		intracellular, amastigote	> 10
CCOC(=O)CC1SC(=NN=Cc2ccccc2)NC1=O (stereo not shown)	parasite growth		24 h, trypomastigote	33.8
CC1=CC(=O)c2ccccc2S1(=O)=O	intracellular amastigote growth	U-937, Tulahuen, β-galactosidase transfected	72 h	402
CCOC(=O)CC1SC(=NN=Cc2ccc(Br)cc2)NC1=O (stereo not shown)	parasite growth		24 h, trypomastigote	8.45
O=C(N[C@H](Cc1c[nH]c2ccccc12)C(=O)Nc1ccncc1)c1ccc(N2CCN(S(=O)(=O)c3cccnc3)CC2)cc1F		mouse C2C12 myoblasts, CA-I/72	72 h	2.4 ± 0.8
c1ccc(-c2ccc(Cn3cncc3CNc3ccc(N4CCCCC4)c(-c4ccccc4)c3)cc2)cc1	parasite growth	mouse Fibroblast	intracellular, amastigote	0.035

SMILES	test	system	conditions	EC50 [µM]
CCOC(=O)CC1SC(=NN=Cc2ccccc2C)NC1=O (stereo not shown)	parasite growth		24 h, trypomastigote	12.6
O=C(O)c1ccc(S(=O)(=O)N2CCN(c3ccc(C(=O)N[C@H](Cc4c[nH]c5ccccc45)C(=O)Nc4ccncc4)c(F)c3)CC2)cc1		mouse C2C12 myoblasts, CA-I/72	72 h	> 10
O=C1C=CS(=O)(=O)c2c1cccc2-c1cc(C(F)(F)F)cc(C(F)(F)F)c1	intracellular amastigote growth	U-937, Tulahuen, β-galactosidase transfected	72 h	24.3
O=C(Cn1ccnc1[N+](=O)[O-])NCc1ccccc1	parasite growth		intracellular, amastigote	1.52
c1ccc(-c2ccc(Cn3cncc3CNc3ccc(-c4cncs4)c(-c4ccccc4)c3)cc2)cc1	parasite growth	mouse Fibroblast	intracellular, amastigote	0.028
O=C1C=CS(=O)(=O)c2ccc(Cl)cc21	intracellular amastigote growth	U-937, Tulahuen, β-galactosidase transfected	72 h	1070
CCOC(=O)c1csc(NN=Cc2ccccc2Cl)n1	parasite growth		24 h, trypomastigote	12.5
N/C(S)=N/N=C/c1ccc(-c2ccc(Cl)cc2)o1	parasite growth, image-based	C2C12, CA-I/72	72 h	< 1
CCOC(=O)CC1SC(=NN=Cc2ccc(OC)cc2)NC1=O (stereo not shown)	parasite growth		24 h, trypomastigote	12.7
O=C1C(Cc2ccco2)=CS(=O)(=O)c2ccccc21	intracellular amastigote growth	U-937, Tulahuen, β-galactosidase transfected	72 h	72.9
N#Cc1ccc(NCc2cncn2Cc2ccc(-c3ccccc3)cc2)cc1-c1ccccc1	parasite growth	mouse Fibroblast	intracellular, amastigote	0.0018
N#Cc1ccc(S(=O)(=O)N2CCN(c3ccc(C(=O)N[C@H](Cc4c[nH]c5ccccc45)C(=O)Nc4ccncc4)c(F)c3)CC2)cc1		mouse C2C12 myoblasts, CA-I/72	72 h	0.0026 ± 0.0005
COc1ccc(NCc2cncn2Cc2ccc(-c3ccccc3)cc2)cc1-c1ccccc1	parasite growth	mouse Fibroblast	intracellular, amastigote	0.009
CCOC(=O)c1csc(NN=Cc2ccc(OC)cc2)n1	parasite growth		24 h, trypomastigote	20.5
O=C(N[C@H](Cc1c[nH]c2ccccc12)C(=O)Nc1ccncc1)c1ccc(N2CCN(S(=O)(=O)C3CC3)CC2)cc1F		mouse C2C12 myoblasts, CA-I/72	72 h	> 10

Some of these lines once more:
SMILES	test	system	conditions	EC50 [µM]
O=C1C=CS(=O)(=O)c2ccc(Cl)cc21	intracellular amastigote growth	U-937, Tulahuen, β-galactosidase transfected	72 h	1070
O=C(Cn1ccnc1[N+](=O)[O-])NCc1ccccc1	parasite growth		intracellular, amastigote	1.52
O=C(N[C@H](Cc1c[nH]c2ccccc12)C(=O)Nc1ccncc1)c1ccc(N2CCN(S(=O)(=O)c3cccnc3)CC2)cc1F		mouse C2C12 myoblasts, CA-I/72	72 h	2.4 ± 0.8
N#CSCCOc1ccc(Oc2ccncc2)cc1	parasite growth		intracellular, amastigote	> 10
